Published values of several laboratories.
Each numbered part is a random draw from the data of one study; scales do not carry over between parts. “And” joins repeats or separate records; there may be more than shown.
UniProt P55212, sequence (whole entry, looked up): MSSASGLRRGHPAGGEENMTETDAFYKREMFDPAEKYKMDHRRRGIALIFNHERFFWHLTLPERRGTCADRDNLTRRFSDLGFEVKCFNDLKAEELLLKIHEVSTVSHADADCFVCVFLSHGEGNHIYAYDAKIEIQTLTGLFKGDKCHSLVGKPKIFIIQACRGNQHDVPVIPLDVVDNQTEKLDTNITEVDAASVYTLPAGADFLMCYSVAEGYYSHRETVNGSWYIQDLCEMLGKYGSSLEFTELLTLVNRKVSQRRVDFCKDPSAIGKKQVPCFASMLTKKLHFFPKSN

Study 1
SMILES: CCCCC[C@@H](O)CC(=O)N[C@H]1COC(=O)[C@H](CO)NC(=O)[C@H](Cc2ccccc2)NC(=O)[C@@H](Cc2c[nH]c3ccccc23)NC(=O)[C@@H](C(C)O)NC(=O)[C@H](CC(N)=O)NC(=O)[C@@H](C(C)C)NC(=O)[C@H](CC(C)C)NC(=O)[C@@H](Cc2ccc(O)cc2)N(C)C(=O)CNC(=O)[C@H](CO)NC(=O)[C@@H](CC(N)=O)NC1=O (some centres unmarked)
Organism: Staphylococcus aureus
Strain: USA300
Concentration: 2 x MIC
time | viable cells
360 min | 400 CFU/mL and 700 CFU/mL and 500 CFU/mL
30 min | 2900 CFU/mL and 3000 CFU/mL and 2600 CFU/mL
180 min | 1200 CFU/mL and 800 CFU/mL
240 min | 600 CFU/mL and 800 CFU/mL

Study 2
SMILES: N=C(N)NCCCCCCN1CCC23c4c5ccc(O)c4OC2c2nc4ccccc4cc2CC3(O)C1C5 (centres unmarked)
Target: Mu-type opioid receptor (OPRM1, Homo sapiens, UniProt P35372)
UniProt P35372, sequence (whole entry, looked up): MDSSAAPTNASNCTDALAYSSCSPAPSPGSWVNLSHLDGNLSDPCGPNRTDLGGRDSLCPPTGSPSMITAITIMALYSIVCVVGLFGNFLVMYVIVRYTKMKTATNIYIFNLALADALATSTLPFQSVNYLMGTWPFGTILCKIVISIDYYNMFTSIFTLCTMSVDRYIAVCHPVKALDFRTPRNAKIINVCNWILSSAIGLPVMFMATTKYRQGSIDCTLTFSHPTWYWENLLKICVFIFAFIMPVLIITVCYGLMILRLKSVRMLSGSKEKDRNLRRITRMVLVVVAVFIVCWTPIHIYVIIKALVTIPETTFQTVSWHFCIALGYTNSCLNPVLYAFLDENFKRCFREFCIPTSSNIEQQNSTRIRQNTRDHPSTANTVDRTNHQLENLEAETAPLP
Mode: competitor
Method: radioligand binding
concentration | normalised specific binding
10 µM | -0.974% and 1.33% and 1.43%
100 pM | 96.1% and 110% and 146%
10 nM | 133% and 106% and 88.8%
1 pM | 125% and 124% and 102%

Study 3
Structure (SMILES): O=C1CCC(N2Cc3c(ccc4c3OCC43CCN(Cc4ccccc4)CC3O)C2=O)C(=O)N1 (centres unmarked)
Target: CRBN/Zinc finger protein Helios (Homo sapiens, UniProt Q96SW2+Q9UKS7)
UniProt Q9UKS7, sequence (whole entry, looked up): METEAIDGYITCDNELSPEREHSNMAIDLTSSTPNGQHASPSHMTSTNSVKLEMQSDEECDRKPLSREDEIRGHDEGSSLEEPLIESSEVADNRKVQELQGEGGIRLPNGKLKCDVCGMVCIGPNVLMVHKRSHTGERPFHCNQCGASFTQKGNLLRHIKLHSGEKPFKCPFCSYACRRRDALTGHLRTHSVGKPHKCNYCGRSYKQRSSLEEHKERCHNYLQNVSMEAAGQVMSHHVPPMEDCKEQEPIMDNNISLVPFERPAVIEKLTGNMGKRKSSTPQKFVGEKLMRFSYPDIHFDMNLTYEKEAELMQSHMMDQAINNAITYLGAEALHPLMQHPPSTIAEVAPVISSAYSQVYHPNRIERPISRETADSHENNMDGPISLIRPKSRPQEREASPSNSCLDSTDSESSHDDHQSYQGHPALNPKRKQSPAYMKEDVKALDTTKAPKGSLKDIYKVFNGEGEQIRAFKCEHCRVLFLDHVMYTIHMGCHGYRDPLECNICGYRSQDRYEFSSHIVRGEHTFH
UniProt Q96SW2, sequence (whole entry, looked up): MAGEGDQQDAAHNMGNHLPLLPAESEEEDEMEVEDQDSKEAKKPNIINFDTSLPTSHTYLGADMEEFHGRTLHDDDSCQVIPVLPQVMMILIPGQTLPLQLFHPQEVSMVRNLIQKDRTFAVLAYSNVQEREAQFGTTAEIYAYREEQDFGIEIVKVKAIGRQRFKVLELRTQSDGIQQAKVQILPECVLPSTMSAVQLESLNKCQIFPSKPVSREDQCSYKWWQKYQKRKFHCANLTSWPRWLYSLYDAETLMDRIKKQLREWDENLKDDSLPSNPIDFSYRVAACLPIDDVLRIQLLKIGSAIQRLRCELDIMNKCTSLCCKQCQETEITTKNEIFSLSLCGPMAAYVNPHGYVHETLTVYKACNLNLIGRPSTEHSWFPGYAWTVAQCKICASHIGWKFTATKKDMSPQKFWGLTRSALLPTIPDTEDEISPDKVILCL
Mode: degrader
Method: HiBiT
Cells: HEK293
concentration | protein remaining
41.15 nM | 91%
0.1694 nM | 106%
13.72 nM | 97.2%
4.572 nM | 109%
1.524 nM | 93.4%
3333.33 nM | 66.9%

Study 4
Structure (SMILES): CC[C@H](C)[C@H](NC(C)=O)C(=O)N[C@@H](CCC(=O)O)C(=O)N[C@H](C(=O)N[C@H](C=O)CC(=O)O)[C@@H](C)O
Effect on: enzyme activity
Mode: inhibitor
CASP8: Caspase-8 (CASP8, Homo sapiens, UniProt Q14790)
UniProt Q14790, sequence (whole entry, looked up): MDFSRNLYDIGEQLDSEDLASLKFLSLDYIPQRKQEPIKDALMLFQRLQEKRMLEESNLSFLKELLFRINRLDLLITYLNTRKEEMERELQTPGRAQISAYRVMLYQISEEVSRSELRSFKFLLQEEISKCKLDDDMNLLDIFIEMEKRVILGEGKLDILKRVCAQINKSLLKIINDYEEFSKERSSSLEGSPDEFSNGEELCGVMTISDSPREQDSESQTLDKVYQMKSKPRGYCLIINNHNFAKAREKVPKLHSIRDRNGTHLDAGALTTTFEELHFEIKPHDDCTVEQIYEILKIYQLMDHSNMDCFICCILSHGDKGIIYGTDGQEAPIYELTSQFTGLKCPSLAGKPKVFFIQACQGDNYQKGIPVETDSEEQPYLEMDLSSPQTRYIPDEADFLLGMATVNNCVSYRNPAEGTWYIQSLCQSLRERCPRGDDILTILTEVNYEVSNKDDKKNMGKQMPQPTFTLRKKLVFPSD
target | concentration | inhibition
CASP8 | 0.1 µM | 78%
Caspase-6 (CASP6, Homo sapiens, UniProt P55212) | 50 nM | 8%
CASP8 | 1 nM | 0%

Some of these lines once more (study 4):
target | concentration | inhibition
CASP8 | 0.1 µM | 78%
Caspase-6 (CASP6, Homo sapiens, UniProt P55212) | 50 nM | 8%
CASP8 | 1 nM | 0%
